Results of several laboratories.
Each line is one published result; not all experiments were run side by side. Numbers after ± are the reported error.
HCRTR1: Orexin/Hypocretin receptor type 1 (HCRTR1, Homo sapiens, UniProt O43613)
UniProt O43613, sequence (whole entry, looked up): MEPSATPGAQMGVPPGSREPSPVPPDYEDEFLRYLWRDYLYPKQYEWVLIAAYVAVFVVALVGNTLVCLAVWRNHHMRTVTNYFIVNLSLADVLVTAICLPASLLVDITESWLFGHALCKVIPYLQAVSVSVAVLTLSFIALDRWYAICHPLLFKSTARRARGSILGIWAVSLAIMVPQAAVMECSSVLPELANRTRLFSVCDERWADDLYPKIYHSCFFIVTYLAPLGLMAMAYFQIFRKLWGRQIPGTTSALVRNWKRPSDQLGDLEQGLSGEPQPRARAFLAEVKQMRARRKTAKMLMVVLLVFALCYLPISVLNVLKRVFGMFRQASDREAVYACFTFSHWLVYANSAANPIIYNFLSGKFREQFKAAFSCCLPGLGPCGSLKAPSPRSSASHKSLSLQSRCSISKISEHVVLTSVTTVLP
UniProt O75469, sequence (whole entry, looked up): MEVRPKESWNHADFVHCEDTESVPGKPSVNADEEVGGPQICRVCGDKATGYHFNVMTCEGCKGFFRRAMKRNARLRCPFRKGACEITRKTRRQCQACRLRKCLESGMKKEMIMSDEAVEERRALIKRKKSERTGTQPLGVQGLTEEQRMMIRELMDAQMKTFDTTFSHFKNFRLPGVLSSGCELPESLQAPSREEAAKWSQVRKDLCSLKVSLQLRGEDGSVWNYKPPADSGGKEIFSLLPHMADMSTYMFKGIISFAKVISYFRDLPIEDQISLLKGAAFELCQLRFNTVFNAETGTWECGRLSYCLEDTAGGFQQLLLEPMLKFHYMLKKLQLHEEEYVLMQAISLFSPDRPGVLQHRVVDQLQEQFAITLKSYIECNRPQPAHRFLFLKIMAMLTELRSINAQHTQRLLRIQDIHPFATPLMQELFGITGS

SMILES | tested on | test | system | setting | measurement | value
C[C@H](Cn1cnc2c(=O)[nH]c(=O)[nH]c21)OCP(=O)(O)O | herpes simplex virus 1 | cytopathic effect | HEL, KOS |  | EC50 | > 100000 nM
CCOP(=O)(OCC)[C@@H]1C[C@H](C(=O)Nc2cc3c4c(cccc4c2)C(=O)N(CCN(C)C)C3=O)ON1C (racemic) | varicella-zoster virus | viral plaque formation, plaque reduction | HEL, thymidine kinase positive |  | EC50 | > 20000 nM
CCCOc1ccc(CC2c3cc(OC)c(OC)cc3CCN2CC(=O)NCc2ccccc2)cc1 (centres unmarked) | HCRTR1 | calcium signal, antagonist, fluorescence |  |  | Kb | 370 nM
CCOC(=O)C(C)NP(=O)(COC(CF)CN1CN2C=C(c3ccc([N+](=O)[O-])cc3)NC2=NC1=O)NC(C)C(=O)OCC (centres unmarked) | herpes simplex virus 1 | cytopathic effect | HEL, KOS, TK+ |  | EC50 | > 100000 nM
O=C(/C=C/C=C/c1ccc2c(c1)OCO2)N1CCCCC1 | NR1I2 (Homo sapiens, UniProt O75469) | reporter gene, agonist, luciferase | LS174T | 24 h | EC50 | 1700 nM
Cc1c(C(=O)NN2CCCCC2)nn(-c2ccc(Cl)cc2Cl)c1-c1ccc(Cl)cc1 | Hepatitis B virus | viral replication, inhibitor |  |  | EC50 | 230 nM
CCCN1C(=O)c2cccc3cc(NC(=O)[C@@H]4C[C@@H](P(=O)(OCC)OCC)N(C)O4)cc(c23)C1=O (racemic) | varicella-zoster virus | viral plaque formation, plaque reduction | HEL, thymidine kinase positive |  | EC50 | 32000 nM
COc1cc2c(cc1OC)C(Cc1ccc(NC(C)=O)cc1)N(CC(=O)NCc1ccccc1)CC2 (centres unmarked) | HCRTR1 | calcium signal, antagonist, fluorescence |  |  | Kb | > 10000 nM
CCCCN1C(=O)c2cccc3cc(NC(=O)[C@H]4C[C@@H](P(=O)(OCC)OCC)N(C)O4)cc(c23)C1=O (racemic) | varicella-zoster virus | viral plaque formation, plaque reduction | HEL, thymidine kinase positive |  | EC50 | 32000 nM
O=c1[nH]c(=O)n([C@H]2C[C@H](O)[C@@H](CO)O2)cc1F | Hepatitis B virus | viral replication, inhibitor |  |  | EC50 | 1530 nM
Cc1cc(-c2cn([C@@H]3O[C@H](CO)C[C@H]3O)c3ncnc(N)c23)ccc1Cl | Trichomonas vaginalis | resorufin | G3, metronidazole-sensitive | 24 h + 2 h, 2% O2 | EC50 | 740 ± 58 nM
O=c1[nH]c(=O)c2ncn(C[C@@H](CF)OCP(=O)(O)O)c2[nH]1 | herpes simplex virus 1 | cytopathic effect | HEL, KOS |  | EC50 | > 329000 nM
Cc1nc2c([nH]1)-c1ccccc1N(C(=O)c1ccc(NC(=O)c3ccccc3-c3ccccc3)cc1)CC2 | Feline infectious peritonitis virus | viral replication, visual scoring |  | 48 h | EC50 | 16900 nM
Nc1ncn(CC(OCP(=O)(O)O)C(F)(F)F)c(=O)n1 (centres unmarked) | herpes simplex virus 1 | cytopathic effect | HEL, KOS, TK+ |  | EC50 | > 100000 nM
CC[C@H]1CN2CCc3cc(OC)c(OC)cc3[C@@H]2C[C@@H]1C[C@H]1NCCc2cc(OC)c(OC)cc21 | Feline infectious peritonitis virus | viral replication, visual scoring |  | 48 h | EC50 | 11 nM
Cc1ccc(-c2cn([C@@H]3O[C@H](CO)C[C@H]3O)c3ncnc(N)c23)cc1C | Trichomonas vaginalis | resorufin | G3, metronidazole-sensitive | 24 h + 2 h, 2% O2 | EC50 | 4070 ± 960 nM
O=C1CC2(C(=O)Nc3ccc(Cl)cc32)c2cnn(Cc3ccc(Cl)c(F)c3)c2N1 (centres unmarked) | dengue virus type 1 | viral replication | Huh-7 with DENV-1 replicon, WestPac | 48 h | EC50 | 2300 nM
CC[C@@H]([C@H](C)O)n1ncn(-c2ccc(N3CCN(c4ccc(OC[C@@H]5CO[C@@](Cn6cncn6)(c6ccc(F)cc6F)C5)cc4)CC3)cc2)c1=O | Hepatitis B virus | viral replication, inhibitor |  |  | EC50 | 220 nM
O=c1[nH]c(=O)c2ncn(CCOCP(=O)(O)O)c2[nH]1 | herpes simplex virus 1 | cytopathic effect | HEL, KOS |  | EC50 | 21500 ± 7600 nM
Nc1ncnc2c1c(-c1ccc(F)cc1)cn2[C@@H]1O[C@H](CO)C[C@H]1O | Trichomonas vaginalis | resorufin | G3, metronidazole-sensitive | 24 h + 2 h, 2% O2 | EC50 | 2000 ± 180 nM
C/C=C/C=C/C1C(C)=CC2CC(C)CCC2C1(C)/C(O)=C1\C(=O)NC(CO)C1=O (centres unmarked) | Trichomonas vaginalis | viability |  | 17 h | EC50 | 800 nM
C[C@H]1CN(c2n[nH]c3nc(N[C@H]4CC[C@H](NS(=O)(=O)CCC(F)(F)F)CC4)ncc23)CCO1 | Leishmania donovani | parasite growth | THP-1 | intracellular, amastigote | EC50 | 1400 nM

SMILES | tested on | test | system | setting | measurement | value
Nc1ncnc2c1c(-c1cccc(C(F)(F)F)c1)cn2C1OC(CO)CC1O (centres unmarked) | Trichomonas vaginalis | resorufin | G3, metronidazole-sensitive | 24 h + 2 h, 2% O2 | EC50 | 72600 ± 22300 nM
Nc1ncn(CC(O)C(F)(F)F)c(=O)n1 (centres unmarked) | herpes simplex virus 1 | cytopathic effect | HEL, KOS, TK+ |  | EC50 | 230000 ± 29000 nM
CCc1ccc(-c2cn([C@@H]3O[C@H](CO)C[C@H]3O)c3ncnc(N)c23)cc1 | Trichomonas vaginalis | resorufin | G3, metronidazole-sensitive | 24 h + 2 h, 2% O2 | EC50 | 790 ± 47 nM
C=C1[C@H](CO)[C@@H](O)C[C@@H]1n1cnc2c(=O)[nH]c(N)nc21 | Hepatitis B virus | viral replication, inhibitor |  |  | EC50 | < 50 nM
CCOC(=O)C(C)NP(=O)(COC(CF)CN1CN2C=C(c3ccccc3)NC2=NC1=O)NC(C)C(=O)OCC (centres unmarked) | herpes simplex virus 1 | cytopathic effect | HEL, KOS, TK+ |  | EC50 | > 100000 nM
Nc1ccn(C[C@@H](CO)OCP(=O)(O)O)c(=O)n1 | herpes simplex virus 2 | cytopathic effect | HEL, clinical isolate PB |  | EC50 | 0.6 ± 0.39 µg/mL
Nc1ncn([C@H]2C[C@H](O)[C@@H](CO)O2)c(=O)n1 | Hepatitis B virus | viral replication, inhibitor |  |  | EC50 | 1330 nM
Cc1ccc(-c2cn([C@@H]3O[C@H](CO)C[C@H]3O)c3ncnc(N)c23)cc1 | Trichomonas vaginalis | resorufin | G3, metronidazole-sensitive | 24 h + 2 h, 2% O2 | EC50 | 1550 ± 40 nM
COc1ccc(C(=O)NN=Cc2ccc(O)c3ncccc23)cc1 | Acinetobacter baumannii | bacterial growth | ATCC 19606 | cation-supplemented medium | EC50 | > 100000 nM
CC[C@@H](C(=O)[C@@H](C)[C@@H](O)[C@H](C)[C@@H]1O[C@@H]([C@@H](CC)C(=O)O)CC[C@@H]1C)[C@H]1O[C@]2(C=C[C@@H](O)[C@]3(CC[C@@](C)([C@H]4CC[C@](O)(CC)[C@H](C)O4)O3)O2)[C@H](C)C[C@@H]1C | Feline infectious peritonitis virus | viral replication, visual scoring |  | 48 h | EC50 | 700 ± 130 nM
C/C=C/C[C@@H](C)[C@@H](O)[C@H]1C(=O)N[C@@H](C(C)C)C(=O)N(C)CC(=O)N(C)[C@@H](CC(C)C)C(=O)N[C@@H](C(C)C)C(=O)N(C)[C@@H](CC(C)C)C(=O)N[C@@H](C)C(=O)N[C@H](C)C(=O)N(C)[C@@H](CC(C)C)C(=O)N(C)[C@@H](CC(C)C)C(=O)N(C)[C@@H](C(C)C)C(=O)N1C | HCoV-NL63 | viral replication, qPCR of supernatant | Caco-2 | 48 h | EC50 | 2500 nM
N#C[C@@]1(c2ccc3c(N)ncnn23)O[C@H](CO)[C@@H](O)[C@H]1O | Feline infectious peritonitis virus | viral replication, visual scoring |  | 48 h | EC50 | 3500 nM
CCCCCCCCCCCCCCCCOCCCOP(=O)(O)COCCn1cnc2c(=O)[nH]c(=O)[nH]c21 | herpes simplex virus 1 | cytopathic effect | HEL, KOS |  | EC50 | 1800 nM
CC[C@H](C)C(=O)O[C@H]1CCC=C2C=C[C@H](C)[C@H](CC[C@@H]3C[C@@H](O)CC(=O)O3)[C@H]21 | Hepatitis B virus | viral replication, inhibitor |  |  | EC50 | 2020 nM
Nc1ncnc2c1c(-c1cncnc1)cn2[C@@H]1O[C@H](CO)[C@@H](O)[C@H]1O | Trichomonas vaginalis | resorufin | G3, metronidazole-sensitive | 24 h + 2 h, 2% O2 | EC50 | 9800 ± 483 nM
Nc1ncnc2c1ncn2CCOCP(=O)(O)O | herpes simplex virus 1 | cytopathic effect | primary human keratinocytes, KOS | 72 h | EC50 | 9.2 ± 0.1 µg/mL
Nc1ncnc2c1c(-c1ccc(Cl)c(F)c1)cn2[C@@H]1O[C@H](CO)C[C@H]1O | Trichomonas vaginalis | resorufin | G3, metronidazole-sensitive | 24 h + 2 h, 2% O2 | EC50 | 1570 ± 39 nM
Nc1nc2c(ncn2COCCO)c(=O)[nH]1 | herpes simplex virus 1 | cytopathic effect | HEL, KOS, TK+ |  | EC50 | 480 ± 270 nM
O=c1[nH]c(=O)c2ncn(C[C@@H](CO)OCP(=O)(O)O)c2[nH]1 | herpes simplex virus 2 | cytopathic effect | HEL, G |  | EC50 | 16000 ± 6000 nM
O=C(Nc1ccc([N+](=O)[O-])cc1Cl)c1cc(Cl)ccc1O | Feline infectious peritonitis virus | viral replication, visual scoring |  | 48 h | EC50 | 290 ± 20 nM
O=c1nc(NC2CC2)c2ncn(CCOCP(=O)(O)O)c2[nH]1 | herpes simplex virus 1 | cytopathic effect | HEL, KOS |  | EC50 | > 100000 nM
Nc1ncn(C[C@@H](CF)OCP(=O)(O)O)c(=O)n1 | herpes simplex virus 1 | cytopathic effect | HEL, KOS, TK+ |  | EC50 | > 100000 nM

Excerpt of the above:
SMILES | tested on | test | system | setting | measurement | value
CC[C@H]1CN2CCc3cc(OC)c(OC)cc3[C@@H]2C[C@@H]1C[C@H]1NCCc2cc(OC)c(OC)cc21 | Feline infectious peritonitis virus | viral replication, visual scoring |  | 48 h | EC50 | 11 nM
Cc1ccc(-c2cn([C@@H]3O[C@H](CO)C[C@H]3O)c3ncnc(N)c23)cc1C | Trichomonas vaginalis | resorufin | G3, metronidazole-sensitive | 24 h + 2 h, 2% O2 | EC50 | 4070 ± 960 nM
O=C1CC2(C(=O)Nc3ccc(Cl)cc32)c2cnn(Cc3ccc(Cl)c(F)c3)c2N1 (centres unmarked) | dengue virus type 1 | viral replication | Huh-7 with DENV-1 replicon, WestPac | 48 h | EC50 | 2300 nM
CC[C@@H]([C@H](C)O)n1ncn(-c2ccc(N3CCN(c4ccc(OC[C@@H]5CO[C@@](Cn6cncn6)(c6ccc(F)cc6F)C5)cc4)CC3)cc2)c1=O | Hepatitis B virus | viral replication, inhibitor |  |  | EC50 | 220 nM
O=c1[nH]c(=O)c2ncn(CCOCP(=O)(O)O)c2[nH]1 | herpes simplex virus 1 | cytopathic effect | HEL, KOS |  | EC50 | 21500 ± 7600 nM
